Measured values pooled from the literature.
A part holds a random share of what one study measured.
UniProt P41145, sequence (whole entry, looked up): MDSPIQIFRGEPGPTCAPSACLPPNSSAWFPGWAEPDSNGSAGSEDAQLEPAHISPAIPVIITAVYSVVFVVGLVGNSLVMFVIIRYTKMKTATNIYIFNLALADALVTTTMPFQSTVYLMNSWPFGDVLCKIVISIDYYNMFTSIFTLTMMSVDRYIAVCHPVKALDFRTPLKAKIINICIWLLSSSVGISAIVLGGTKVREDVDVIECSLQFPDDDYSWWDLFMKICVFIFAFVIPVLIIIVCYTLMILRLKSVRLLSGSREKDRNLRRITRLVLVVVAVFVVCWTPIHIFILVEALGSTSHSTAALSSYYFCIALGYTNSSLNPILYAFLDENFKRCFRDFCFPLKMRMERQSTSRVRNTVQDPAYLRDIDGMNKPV
UniProt P08588, sequence (whole entry, looked up): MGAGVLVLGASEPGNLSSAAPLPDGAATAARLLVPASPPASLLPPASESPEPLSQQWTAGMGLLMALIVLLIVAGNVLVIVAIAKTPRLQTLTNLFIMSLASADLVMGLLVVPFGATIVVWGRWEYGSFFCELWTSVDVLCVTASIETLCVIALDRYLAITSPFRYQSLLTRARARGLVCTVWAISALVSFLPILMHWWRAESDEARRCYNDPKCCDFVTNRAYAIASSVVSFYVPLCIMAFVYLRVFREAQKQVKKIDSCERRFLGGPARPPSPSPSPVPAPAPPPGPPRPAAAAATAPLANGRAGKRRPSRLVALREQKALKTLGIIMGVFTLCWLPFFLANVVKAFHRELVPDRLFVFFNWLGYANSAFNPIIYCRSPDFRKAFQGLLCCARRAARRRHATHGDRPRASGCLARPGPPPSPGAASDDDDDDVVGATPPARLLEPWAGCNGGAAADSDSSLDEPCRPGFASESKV
UniProt Q01959, sequence (whole entry, looked up): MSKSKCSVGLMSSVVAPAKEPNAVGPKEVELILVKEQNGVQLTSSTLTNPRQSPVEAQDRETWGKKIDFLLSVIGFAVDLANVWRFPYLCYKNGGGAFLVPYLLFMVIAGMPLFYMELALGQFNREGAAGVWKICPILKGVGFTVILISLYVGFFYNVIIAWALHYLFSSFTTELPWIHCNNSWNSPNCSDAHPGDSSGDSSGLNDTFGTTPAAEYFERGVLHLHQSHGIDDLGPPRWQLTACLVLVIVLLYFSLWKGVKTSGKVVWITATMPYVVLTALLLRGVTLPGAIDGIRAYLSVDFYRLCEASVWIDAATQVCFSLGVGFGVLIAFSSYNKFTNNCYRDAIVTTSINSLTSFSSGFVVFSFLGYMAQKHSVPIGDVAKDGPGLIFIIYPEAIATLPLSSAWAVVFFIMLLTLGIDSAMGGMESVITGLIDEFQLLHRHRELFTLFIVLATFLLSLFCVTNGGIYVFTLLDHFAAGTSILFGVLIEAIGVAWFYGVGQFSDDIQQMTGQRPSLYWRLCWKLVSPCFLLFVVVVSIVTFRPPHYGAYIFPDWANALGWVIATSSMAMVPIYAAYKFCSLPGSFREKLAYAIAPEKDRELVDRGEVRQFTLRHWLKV
UniProt P23975, sequence (whole entry, looked up): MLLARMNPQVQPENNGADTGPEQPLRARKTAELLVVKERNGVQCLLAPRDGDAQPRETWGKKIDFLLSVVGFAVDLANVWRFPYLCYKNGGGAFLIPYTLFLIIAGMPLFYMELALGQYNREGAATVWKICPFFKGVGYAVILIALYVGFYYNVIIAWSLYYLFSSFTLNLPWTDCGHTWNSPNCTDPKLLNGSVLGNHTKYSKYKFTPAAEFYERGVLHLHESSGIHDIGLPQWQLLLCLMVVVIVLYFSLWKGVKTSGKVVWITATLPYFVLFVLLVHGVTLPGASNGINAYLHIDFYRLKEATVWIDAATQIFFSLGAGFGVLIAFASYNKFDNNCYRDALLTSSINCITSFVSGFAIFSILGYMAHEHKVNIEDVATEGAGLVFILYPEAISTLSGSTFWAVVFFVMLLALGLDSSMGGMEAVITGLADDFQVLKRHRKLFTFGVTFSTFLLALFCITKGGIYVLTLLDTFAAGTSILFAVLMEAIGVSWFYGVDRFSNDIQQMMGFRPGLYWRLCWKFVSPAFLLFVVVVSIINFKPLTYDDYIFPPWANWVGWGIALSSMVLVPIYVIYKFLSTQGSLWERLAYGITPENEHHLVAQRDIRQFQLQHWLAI
UniProt P31645, sequence (whole entry, looked up): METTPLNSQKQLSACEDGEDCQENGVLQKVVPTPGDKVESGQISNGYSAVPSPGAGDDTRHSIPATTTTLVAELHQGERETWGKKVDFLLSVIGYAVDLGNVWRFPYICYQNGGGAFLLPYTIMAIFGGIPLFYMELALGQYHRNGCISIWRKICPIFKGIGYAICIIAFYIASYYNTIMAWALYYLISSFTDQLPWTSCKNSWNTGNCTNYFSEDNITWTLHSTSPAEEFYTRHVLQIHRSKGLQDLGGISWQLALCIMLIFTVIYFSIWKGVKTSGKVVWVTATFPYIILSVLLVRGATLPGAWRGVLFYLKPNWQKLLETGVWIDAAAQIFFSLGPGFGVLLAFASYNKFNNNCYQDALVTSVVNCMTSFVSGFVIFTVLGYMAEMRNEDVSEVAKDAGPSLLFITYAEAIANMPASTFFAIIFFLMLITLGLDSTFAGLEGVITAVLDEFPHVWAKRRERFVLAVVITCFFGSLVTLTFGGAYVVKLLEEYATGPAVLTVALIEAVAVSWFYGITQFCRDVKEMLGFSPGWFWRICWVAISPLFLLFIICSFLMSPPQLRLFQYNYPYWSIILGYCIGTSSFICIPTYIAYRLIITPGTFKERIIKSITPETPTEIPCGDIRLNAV
UniProt P08908, sequence (whole entry, looked up): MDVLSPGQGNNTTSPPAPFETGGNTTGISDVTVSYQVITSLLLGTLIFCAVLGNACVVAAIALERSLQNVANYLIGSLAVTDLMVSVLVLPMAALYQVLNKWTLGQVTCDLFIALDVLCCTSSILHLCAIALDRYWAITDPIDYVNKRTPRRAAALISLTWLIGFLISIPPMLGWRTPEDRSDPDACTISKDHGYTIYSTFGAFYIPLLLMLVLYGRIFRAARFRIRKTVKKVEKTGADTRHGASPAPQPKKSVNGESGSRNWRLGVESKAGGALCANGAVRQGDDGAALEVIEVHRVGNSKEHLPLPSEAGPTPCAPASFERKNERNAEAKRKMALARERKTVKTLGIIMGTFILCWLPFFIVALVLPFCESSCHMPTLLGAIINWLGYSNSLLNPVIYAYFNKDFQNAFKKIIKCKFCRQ
UniProt P35372, sequence (whole entry, looked up): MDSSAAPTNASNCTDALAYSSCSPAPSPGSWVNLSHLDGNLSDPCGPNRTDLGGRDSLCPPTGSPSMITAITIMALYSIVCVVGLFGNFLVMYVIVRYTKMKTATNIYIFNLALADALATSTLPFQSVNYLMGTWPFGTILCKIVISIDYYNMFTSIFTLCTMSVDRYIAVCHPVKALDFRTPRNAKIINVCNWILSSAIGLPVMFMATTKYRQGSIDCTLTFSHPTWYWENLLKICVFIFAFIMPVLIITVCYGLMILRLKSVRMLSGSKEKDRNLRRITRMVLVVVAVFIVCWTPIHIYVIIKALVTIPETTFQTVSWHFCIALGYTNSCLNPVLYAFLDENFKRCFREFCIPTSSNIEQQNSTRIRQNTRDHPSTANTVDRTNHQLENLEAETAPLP
UniProt P21918, sequence (whole entry, looked up): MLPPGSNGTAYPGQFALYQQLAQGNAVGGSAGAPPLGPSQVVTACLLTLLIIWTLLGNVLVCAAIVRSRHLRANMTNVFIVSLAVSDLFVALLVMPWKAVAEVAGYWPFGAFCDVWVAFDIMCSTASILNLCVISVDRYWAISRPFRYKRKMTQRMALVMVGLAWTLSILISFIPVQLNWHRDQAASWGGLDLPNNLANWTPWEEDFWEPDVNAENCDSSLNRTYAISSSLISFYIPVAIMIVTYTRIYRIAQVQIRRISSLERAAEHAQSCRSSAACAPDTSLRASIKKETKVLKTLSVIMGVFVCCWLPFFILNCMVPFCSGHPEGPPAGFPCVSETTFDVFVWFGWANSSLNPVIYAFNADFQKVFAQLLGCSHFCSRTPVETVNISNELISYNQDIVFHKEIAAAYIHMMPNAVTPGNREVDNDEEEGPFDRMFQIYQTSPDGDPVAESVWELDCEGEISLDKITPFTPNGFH

Set 1 — organism: Sarcocystis neurona; effect on: parasite growth; concentration: 10 µM; time: 96 h; setting: first screen; reference: untreated
| SMILES | log2 fold change |
| --- | --- |
| CN1CCCC(n2nc(Cc3ccc(Cl)cc3)c3ccccc3c2=O)CC1 (centres unmarked) | -2.48 |
| Oc1c(Cl)cc(Cl)c2cccnc12 | -4.88 |
| CC(NC(C)(C)C)C(=O)c1cccc(Cl)c1 (centres unmarked) | 0.3 |
| Cc1ncc2n1-c1ccc(Cl)cc1C(c1ccccc1F)=NC2 | 0.18 |
| C[C@]12CCC(=O)C=C1CC[C@@H]1[C@@H]2CC[C@@]2(C)[C@H]1CC[C@]2(C)O | -0.27 |

Set 2 — concentration: 10 µM
Compound: N#CN1CC[C@@H](C(=O)Nc2nc3c(s2)CN(C(=O)CN=[N+]=[N-])CC3)C1
| target | effect on | technique | inhibition [%] |
| --- | --- | --- | --- |
| CHRM3 (Homo sapiens, UniProt P20309) | binding | radioligand binding | -2.15 |
| SLC6A3 (Homo sapiens, UniProt Q01959) | binding | radioligand binding | 83 |
| SLC6A2 (Homo sapiens, UniProt P23975) | binding | radioligand binding | 3.51 |
| OPRM1 (Homo sapiens, UniProt P35372) | binding | radioligand binding | 18.7 |
| HTR1A (Homo sapiens, UniProt P08908) | ligand displacement |  | 12.1 |
| DRD5 (Homo sapiens, UniProt P21918) | binding | radioligand binding | -19.3 |
| OPRK1 (Homo sapiens, UniProt P41145) | binding | radioligand binding | 13.3 |
| SLC6A4 (Homo sapiens, UniProt P31645) | binding | radioligand binding | 7.66 |

Set 3 — effect on: enzyme activity; action: inhibitor; concentration: 10 µM
Target: Calcium/calmodulin-dependent protein kinase type II subunit alpha (CAMK2A, Homo sapiens, UniProt Q9UQM7)
UniProt Q9UQM7, sequence (whole entry, looked up): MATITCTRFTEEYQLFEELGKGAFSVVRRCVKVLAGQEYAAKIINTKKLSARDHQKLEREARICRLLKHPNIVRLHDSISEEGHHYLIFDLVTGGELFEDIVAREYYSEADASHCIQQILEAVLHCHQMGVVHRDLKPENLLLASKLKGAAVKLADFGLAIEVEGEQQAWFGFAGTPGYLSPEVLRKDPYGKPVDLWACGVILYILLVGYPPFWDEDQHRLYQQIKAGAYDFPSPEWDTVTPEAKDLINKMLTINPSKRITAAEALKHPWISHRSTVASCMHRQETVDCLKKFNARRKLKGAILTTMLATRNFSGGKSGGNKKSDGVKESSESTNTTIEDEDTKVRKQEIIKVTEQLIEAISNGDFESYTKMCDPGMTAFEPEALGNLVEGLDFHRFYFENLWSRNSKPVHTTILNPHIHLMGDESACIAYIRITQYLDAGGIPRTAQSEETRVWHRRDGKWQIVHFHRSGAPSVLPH
| Structure (SMILES) | inhibition [%] |
| --- | --- |
| COC(=O)[C@@]12OC[C@]34[C@H]([C@@H](O)[C@@H]1O)[C@@]1(C)CC(=O)C(O)=C(C)[C@@H]1C[C@H]3OC(=O)[C@H](OC(=O)/C=C(\C)C(C)(C)OC(C)=O)[C@@H]24 | -15 |
| C[C@]1(C(=O)O)CCC[C@]2(C)c3cc(O)ccc3CC[C@@H]12 | 43 |
| CCN1C[C@]2(COC)CC[C@H](O)[C@]34C1[C@@](O)([C@@H](OC)[C@H]23)[C@@]1(O)C[C@H](OC)[C@H]2C[C@@H]4[C@@H]1[C@H]2OC | 17 |

Further values, each from its own experiment
| Compound | target | action | cells | quantity | value |
| --- | --- | --- | --- | --- | --- |
| CN1C[C@H](C(=O)N[C@]2(C)O[C@@]3(O)[C@@H]4CCCN4C(=O)[C@H](Cc4ccccc4)N3C2=O)C[C@@H]2c3cccc4[nH]cc(c34)C[C@H]21 | Beta-1 adrenergic receptor (ADRB1, Homo sapiens, UniProt P08588) | agonist | cells | efficacy | 64.8% |

For quick reference, copied from above (set 1):
| SMILES | log2 fold change |
| --- | --- |
| Oc1c(Cl)cc(Cl)c2cccnc12 | -4.88 |
| C[C@]12CCC(=O)C=C1CC[C@@H]1[C@@H]2CC[C@@]2(C)[C@H]1CC[C@]2(C)O | -0.27 |
